Assay results pooled from the literature.
Numbers after ± are the reported error.
USP3 ZnF-UBD domain: Ubiquitin carboxyl-terminal hydrolase 3, ZnF-UBD domain (USP3, Homo sapiens, UniProt Q9Y6I4)
UniProt Q9Y6I4, sequence (whole entry, looked up): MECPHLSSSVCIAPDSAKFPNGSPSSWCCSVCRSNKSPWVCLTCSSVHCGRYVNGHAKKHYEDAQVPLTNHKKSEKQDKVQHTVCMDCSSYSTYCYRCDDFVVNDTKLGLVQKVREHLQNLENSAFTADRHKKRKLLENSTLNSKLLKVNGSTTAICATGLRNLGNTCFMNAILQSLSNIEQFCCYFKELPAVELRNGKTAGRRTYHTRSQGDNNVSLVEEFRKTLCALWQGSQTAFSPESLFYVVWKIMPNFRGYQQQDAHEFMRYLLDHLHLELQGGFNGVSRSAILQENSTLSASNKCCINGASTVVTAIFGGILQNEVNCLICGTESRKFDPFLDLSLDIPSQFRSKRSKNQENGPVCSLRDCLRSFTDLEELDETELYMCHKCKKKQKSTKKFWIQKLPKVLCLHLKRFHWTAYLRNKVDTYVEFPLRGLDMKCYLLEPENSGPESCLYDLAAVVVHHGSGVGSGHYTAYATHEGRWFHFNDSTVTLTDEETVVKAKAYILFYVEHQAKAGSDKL

SMILES | tested on | assay | test system | conditions | scale | endpoint | result
CC(C)C[C@H](NC(=O)C[C@H](O)[C@H](CC(C)C)NC(=O)[C@H](Cc1c[nH]cn1)NC(=O)CNC(=O)[C@@H](NC(=O)[C@H](C)NC(=O)[C@H](Cc1c[nH]c2ccccc12)NC(=O)[C@H](CCC(N)=O)NC(=O)[C@@H](Cc1ccccc1)NC(=O)COCCOCCNC(=O)CCC(C(=O)O)N1CCN(CC(=O)O)CCN(CC(=O)O)CC1)C(C)C)C(N)=O (some centres unmarked) [lutetium-177 labelled] | – | – | female BALB/c nu/nu mice, spleen | intravenous, 50 pmol, 1 h | – | tissue uptake | 0.28 ± 0.06 %ID/g
N#Cc1ccn2c(-c3ccncc3)c(-c3ccc(F)cc3)nc2c1 | – | kinase binding, competitor, MIB/MS competition, item: RTK1 | Candida albicans cell lysate | 10 µM | relative to: DMSO | log2 fold change | -0.0261
O=C(O)CNC(=O)Cc1ccccc1 | – | – | ventricular cardiomyocytes, C57BL/6 mouse | dose not given, 0.548 s | – | sarcomere length | 1.62 µm
NC(=O)c1cnc2[nH]ccc2c1N[C@@H]1[C@@H]2CC3C[C@H]1C[C@@](O)(C3)C2 | – | flow cytometry, item: CD8+ effector memory T cells | Japanese healthy subjects, peripheral blood | oral, 10 mg twice daily, day 4 | – | change from baseline | -0.17%
c1ccc(-c2n[nH]cc2-c2ccnc3ccccc23)nc1 | – | kinase binding, competitor, MIB/MS competition, item: KIN2 | Candida albicans cell lysate | 10 µM | relative to: DMSO | log2 fold change | 1.47
C[C@H](Oc1ccc(Br)cc1-c1ccon1)C(=O)O | – | muscle velocity recovery cycle | human, tibialis anterior muscle | 200 mg once daily, first response peak at 15 Hz, multiple ascending dose | – | difference from placebo | 0.618%
C[C@H]1C[C@H]2CSC(N)=N[C@@]2(c2nc(NC(=O)c3ccc(OC(F)F)cn3)cs2)CO1 | – | item: Aβ1-40 | healthy adults, plasma | 15 mg once daily, day 4 | relative to: placebo | percent change from baseline | -67.1%
Cc1sc2ncn(CC(=O)O)c(=O)c2c1C | USP3 ZnF-UBD domain | – | – | – | – | Kd | 290 µM
N#Cc1ccc2c(-c3ccncc3)c(-c3ccc(F)cc3)nn2c1 | – | kinase binding, competitor, MIB/MS competition, item: RCK2 | Candida albicans cell lysate | 100 nM | relative to: DMSO | log2 fold change | -0.0491
O=C(NCCc1cccnc1)c1ccc([C@H]2[C@@H](F)[C@@H](F)C[C@@H](F)[C@H]2F)cc1 | – | liver microsome stability | human liver microsomes | 1 µM, without NADPH | – | hepatic clearance | 3.9 mL/min/kg
CC(C)NCC(O)c1ccc(O)c(O)c1 (centres unmarked) | – | – | ventricular cardiomyocytes, C57BL/6 mouse | dose not given, 0.18 s | – | sarcomere length | 1.5 µm
CSCCNc1nc(SCCC(F)(F)F)nc2c1ncn2[C@@H]1O[C@H](COP(=O)(O)OP(=O)(O)C(Cl)(Cl)P(=O)(O)O)[C@@H](O)[C@H]1O | – | platelet aggregation, light transmission aggregometry | human patients, platelet-rich plasma | dose not given, 4 to 6 h, inhibition threshold 90%, added: TRAP 15 µM | – | patients with inhibition above threshold | 0%
Cc1n[nH]c2ccc(-c3cc(OC[C@@H](N)Cc4ccccc4)cnc3-c3ccoc3)cc12 | – | kinase binding, competitor, MIB/MS competition, item: NIK1 | Candida albicans cell lysate | 1 µM | relative to: DMSO | log2 fold change | 0.254
N#Cc1ccc2c(c1)[C@H]1CCCN(C(=O)c3ccc4[nH]cnc4c3)[C@H]1C2 | – | – | human, Phase II trial | oral, 80 mg once daily, day 28, adjusted mean, SE | – | change, HOMA-beta, from baseline | -0.5%
OC(CCN1CCCCC1)(c1ccccc1)C1CC2C=CC1C2 (centres unmarked) | – | resting-state EEG | healthy elderly humans | oral, 4 mg, eyes closed, LS mean | relative to: baseline | change in EEG Alpha1-power Pz-O2 | -35.6%
CN1CCN(C(=O)c2ccc([C@H]3[C@@H](F)[C@@H](F)C[C@@H](F)[C@H]3F)cc2)CC1=O | – | liver microsome stability | dog liver microsomes | 1 µM | – | hepatic clearance | 7.3 mL/min/kg
N#Cc1c2n(c3c(=O)n(CC(=O)O)cnc13)CCCC2 | USP3 ZnF-UBD domain | – | – | – | – | Kd | 603 µM

Some of these lines once more:
SMILES | tested on | assay | test system | conditions | scale | endpoint | result
N#Cc1ccc2c(c1)[C@H]1CCCN(C(=O)c3ccc4[nH]cnc4c3)[C@H]1C2 | – | – | human, Phase II trial | oral, 80 mg once daily, day 28, adjusted mean, SE | – | change, HOMA-beta, from baseline | -0.5%
OC(CCN1CCCCC1)(c1ccccc1)C1CC2C=CC1C2 (centres unmarked) | – | resting-state EEG | healthy elderly humans | oral, 4 mg, eyes closed, LS mean | relative to: baseline | change in EEG Alpha1-power Pz-O2 | -35.6%
